# Measurements gathered from unrelated publications.
# Each line is one published result; not all experiments were run side by side. Values joined by “and” are separate records of one study, mostly repeats; a detail may differ. ± gives the spread as reported.
SMILES,target or system,assay,test system,conditions,scale,endpoint,value
CCCCN1C[C@H](O)[C@@H](O)[C@@H](O)[C@H]1CO,sample B patient fibroblasts,"Gb3 level lowering, LC-MS/MS, measured: Gb3 d18:1/24:1",,216 h,,IC50,11.7 µM
COc1cnc2cccc(N3CCc4c(cc(Cn5ccnc5C)cc4-c4cn(C)nc4C(F)(F)F)C3=O)c2c1,SW900,"cell growth, inhibitor",,120 h,,EC50,0.0583 µM
CC(C)(c1ccc(O)cc1)c1ccc(O)cc1,HepG2 spheroids,Hoechst flow cytometry,,"0.10 µM, 96 h",,S phase cells,9.61 ± 1.74%
CCc1cc(C(=O)NC)c2nccc(N3CCc4c(cc(Cn5ccnc5)cc4-c4cn(C)nc4C(F)(F)F)C3=O)c2c1,,,Sprague Dawley rats,"oral, 50 mg/kg once daily, 7 days",,blood TP,57.2 ± 0.87 g/L
C[C@H](CCC(=O)NCCS(=O)(=O)O)[C@H]1CC[C@H]2[C@@H]3CC[C@@H]4C[C@H](O)CC[C@]4(C)[C@H]3CC[C@]12C,rat PCK cystic cholangiocytes,cell counting,,"20 µM, 24 h",reference: untreated,proliferation increase,55%
Cc1cc(/N=N/c2ccc(S(=O)(=O)Nc3ccccn3)cc2)c(N)cc1O,OCI-Ly1,,,"0.1 µM, 120 h",,viability,183%
COc1cc(O)c2c(c1)C(=O)c1cc(C)cc(O)c1C2=O,HepaRG co-cultured with HK-2,MTT,,"266.67 µM, 24 h",reference: untreated control,cell viability,95.4 ± 13.4%
CCCCc1nc(Cl)c(CO)n1Cc1ccc(-c2ccccc2-c2nn[nH]n2)cc1,human PBMC,"RNA-seq, measured: HMGN2P46 mRNA",,"10 µg/mL, 24 h",reference: untreated control,log2 fold change,1.9
CCn1cc(-c2cc(Cn3ccnc3)cc3c2CCN([C@H](c2cc(OC)ccn2)C2CC2)C3=O)c(C(F)(F)F)n1,SW900,"cell growth, inhibitor",,120 h,,EC50,8.73 µM
CCN(CC)CCCC(C)Nc1ccnc2cc(Cl)ccc12 (centres unmarked),hiPSC-derived ventricular cardiomyocytes,"current clamp, externally paced",,5 µM,reference: pre-drug control,APD90 prolongation,121% and 61.1% and 136% and 97.8%
Clc1ccc(N/N=C(\c2ccccc2)c2ccccn2)nc1,OCI-Ly1,,,"0.1 µM, 120 h",,viability,0.82%
COc1c(O)cc2c(c1O)C(=O)c1c(cc(C)c(O)c1OC)C2=O,HepaRG co-cultured with HK-2,MTT,,"133.33 µM, 24 h",reference: untreated control,cell viability,82.8 ± 16.1%
CC(C)C[C@H](NC(=O)C[C@H](O)[C@H](CC(C)C)NC(=O)[C@H](Cc1c[nH]cn1)NC(=O)CNC(=O)[C@@H](NC(=O)[C@H](C)NC(=O)[C@H](Cc1c[nH]c2ccccc12)NC(=O)[C@H](CCC(N)=O)NC(=O)[C@@H](Cc1ccccc1)NC(=O)COCCOCCNC(=O)CCC(C(=O)O)N1CCN(CC(=O)O)CCN(CC(=O)O)CC1)C(C)C)C(N)=O (some centres unmarked) [lutetium-177 labelled],,,"female BALB/c nu/nu mice, spleen","intravenous, 50 pmol, 24 h",,tissue uptake,0.04 ± 0.009 %ID/g
CCCCN1CCN(c2ccc3nc(-c4ccc5nc(-c6cc(OC)ccc6OC)[nH]c5c4)[nH]c3c2)CC1,786-0,"cell growth, NCI-60 SRB",,"10 µM, 48 h",,growth percent,100%
CCC(=O)N1CCOc2c(cc(-c3ccc(OC)c(OC)c3)cc2OC[C@H]2CCCN(C)C2)C1,OCI-Ly1,,,"0.1 µM, 120 h",,viability,135%
O=C(/C=C/C=C/C=C/C1CCCCC1)NC1=C[C@@](O)(/C=C/C=C/C=C/C(=O)NC2=C(O)CCC2=O)[C@@H]2O[C@@H]2C1=O,HCC1954,"cell growth, CellTiter-Glo",,78 h,,GI50,14.7 µM
COc1cc2ncnc(Nc3ccc(Oc4ccccc4)cc3C)c2cc1OC.O=C(O)C(F)(F)F,COLO 205 (BRAF V600E),resazurin,,"3 µM, 72 h, with: trametinib 0 nM",,fractional effect,39%
O=C(O)CNC(=O)C(=O)O,OCI-Ly1,,,"0.5 µM, 120 h",,viability,157%
CC/C(=N\NC(=O)NCc1cccc(O)c1)c1ccc(O)c(C)c1O,SK-OV-3,"Western blot, measured: LATS",,"1 µM, 1 h, 3D culture in gellan gum, unit not given",reference: β-actin,protein level,0.91 ± 0.58
CN(C)C(=O)CCc1nc(-c2ccccc2)c(-c2ccccc2)o1,COS-7,,,"50 µM, 24 h, 0.1% DMSO, unit not given",reference: vehicle control,confluence,0.93 ± 0.06
O=C(O)c1ccnc(C(=O)O)c1,OCI-Ly1,,,"0.1 µM, 120 h",,viability,195%
c1ccc2[nH]ccc2c1,HCT-8,"RNA-seq, measured: SLC16A9",,concentration not given,,"mRNA level, LS mean",4.52 counts per million
Cn1cc(-c2ccc(-c3cncc(Cl)c3N3CCC4(CCNC4=O)CC3)cc2)cn1,COLO 205,"microarray, measured: ASS1",,"concentration not given, 6 h, gene set ASSY",reference: untreated cells,fold change in expression,3.22
C=CCNC1=C2C[C@@H](C)C[C@H](OC)[C@H](O)[C@@H](C)/C=C(\C)[C@H](OC(N)=O)[C@@H](OC)/C=C\C=C(/C)C(=O)NC(=CC1=O)C2=O,iPSC-derived cardiomyocytes,"concentration-response curve, measured: MyBP-C protein level",,24 h,,EC50,8.2 µM
Oc1ccc(/C=C/c2cc(O)cc(O)c2)cc1,OCI-Ly1,,,"0.5 µM, 120 h",,viability,174%
CCCCCCCCC(=O)c1cc(O)c(O)c(O)c1,COS-7,,,"30 µM, 24 h, 0.1% DMSO, unit not given",reference: vehicle control,confluence,0.82 ± 0.03
NC(=O)c1cccnc1,OCI-Ly1,,,"1 µM, 120 h",,viability,159%
CC(C)C[C@H](NC(=O)C[C@H](O)[C@H](CC(C)C)NC(=O)[C@H](Cc1c[nH]cn1)NC(=O)CNC(=O)[C@@H](NC(=O)[C@H](C)NC(=O)[C@H](Cc1c[nH]c2ccccc12)NC(=O)[C@H](CCC(N)=O)NC(=O)[C@@H](Cc1ccccc1)NC(=O)COCCOCCNC(=O)CCC(C(=O)O)N1CCN(CC(=O)O)CCN(CC(=O)O)CCN(CC(=O)O)CC1)C(C)C)C(N)=O (some centres unmarked) [lutetium-177 labelled],,,"BALB/c nu/nu mice, female, carcass incl. GI tract contents","intravenous, 50 pmol, 24 h",,tissue uptake,0.5 ± 0.6 %ID
[Cl-].[Cl-].[Ru+2].c1cnc2c(c1)ccc1cccnc12.c1cnc2c(c1)ccc1cccnc12.c1csc(-c2ccc(-c3ccc(-c4ccc(-c5nc6c7cccnc7c7ncccc7c6[nH]5)s4)s3)s2)c1,SK-MEL-28,resazurin viability,,"normoxia, with: green light 523 nm",,EC50,~0.1 µM

# For quick reference, copied from above:
SMILES,target or system,assay,test system,conditions,scale,endpoint,value
COc1cnc2cccc(N3CCc4c(cc(Cn5ccnc5C)cc4-c4cn(C)nc4C(F)(F)F)C3=O)c2c1,SW900,"cell growth, inhibitor",,120 h,,EC50,0.0583 µM
CC(C)(c1ccc(O)cc1)c1ccc(O)cc1,HepG2 spheroids,Hoechst flow cytometry,,"0.10 µM, 96 h",,S phase cells,9.61 ± 1.74%
CCc1cc(C(=O)NC)c2nccc(N3CCc4c(cc(Cn5ccnc5)cc4-c4cn(C)nc4C(F)(F)F)C3=O)c2c1,,,Sprague Dawley rats,"oral, 50 mg/kg once daily, 7 days",,blood TP,57.2 ± 0.87 g/L
C[C@H](CCC(=O)NCCS(=O)(=O)O)[C@H]1CC[C@H]2[C@@H]3CC[C@@H]4C[C@H](O)CC[C@]4(C)[C@H]3CC[C@]12C,rat PCK cystic cholangiocytes,cell counting,,"20 µM, 24 h",reference: untreated,proliferation increase,55%
Cc1cc(/N=N/c2ccc(S(=O)(=O)Nc3ccccn3)cc2)c(N)cc1O,OCI-Ly1,,,"0.1 µM, 120 h",,viability,183%
